Measurements of several laboratories.
Each numbered part is a random draw from the data of one study; scales do not carry over between parts.

Set 1 — method: aptamer microarray, sandwich; molecule type: DNA with 2'F-ANA; medium: in vitro; concentration: 200 nM; with: Cy3 exosite-II aptamer, 400 nM; reading: higher = stronger binding; quantity: mean fluorescence intensity; strand: GGTTGGTGTGGTTGG
Target: Prothrombin, mature alpha-thrombin (F2, Homo sapiens, UniProt P00734)
Setting: whole 15-mer aptamer, many near background
2'F-ANA at 1 3 4 5 8 10 13: 56.1 a.u.
2'F-ANA at 2 3 4 6 8 12: 846 a.u.
2'F-ANA at 3 4 8 9 10 11 12: 373 a.u.
2'F-ANA at 1 3 5 8 10 11 14 15: 48.3 a.u.
2'F-ANA at 1 3 7 8 11 12 14: 138 a.u.
2'F-ANA at 2 4 8 9 10 11 13 14: 59.5 a.u.
2'F-ANA at 3 5 7 8 10 11: 61.9 a.u.
2'F-ANA at 1 2 3 4 5 6 9 11 12 13 14: 48.5 a.u.
2'F-ANA at 1 2 6 8 13: 125 a.u.
2'F-ANA at 1 2 4 10 11: 49.5 a.u.
2'F-ANA at 3 9 14: 678 a.u.
2'F-ANA at 2 3 4 5 6 7 8 11 13 15: 71.4 a.u.
2'F-ANA at 2 3 4 5 6 7 10 11 13 15: 48.6 a.u.
2'F-ANA at 1 2 3 5 6 11 14 15: 49.1 a.u.
2'F-ANA at 2 3 4 7 8 9 11 13 15: 441 a.u.
2'F-ANA at 2 3 7 8 11 12 13 14 15: 451 a.u.
2'F-ANA at 3 4 5 8 9 10 13 15: 48.4 a.u.
2'F-ANA at 2 3 5 7 11 13 15: 141 a.u.
2'F-ANA at 1 2 5 7 9 11 12 14 15: 44.1 a.u.
2'F-ANA at 2 3 9 11 13 15: 588 a.u.
2'F-ANA at 1 3 9 10 13: 75.4 a.u.

Set 2 — method: RNA Bind-n-Seq; molecule type: RNA; medium: in vitro; concentration: 365 nM; reference: no-protein control; reading: higher = stronger binding; quantity: RBNS enrichment (R)
Target: RNA binding protein fox-1 homolog 2, RRM domain, GST-SBP tag (RBFOX2, Homo sapiens, UniProt O43251-10, residues 100-194)
Setting: natural RNA segment, single round, ends assumed
All sequences stand within: GGGAGUUCUACAGUCCGACGAUC … UGGAAUUCUCGGGUGCCAA
Construct (chain): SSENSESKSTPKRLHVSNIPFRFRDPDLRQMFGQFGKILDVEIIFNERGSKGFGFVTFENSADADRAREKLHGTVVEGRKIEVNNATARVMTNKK
ACAUUUGAGGUGGCCACAUGAUUGGGUGGAAUUCAUCCCUCCUGUCUUCACCAUUCCUCCCAGCUCCACAUCUUAAGGAUGCUUACGGGAGACGAAGCUGUGUCAUCAAG: 0.216
UGCAUCAGGAAUUUACCAGGAGAUGGAAAAGAACAGAAAAAGCCCUGAGCCUGUGUGUGUUCCUUCCGGCACCUGGCCAGCAUGGAGGGCUCUCCCUAGUCCUAGUGUGU: 1.38
GGAAAGGGCUCUCCUCUCUGAUUGGUCCCUAGGCCACGGGCCGGCCCCCAGACACCAUUCACCGACCCACUGCAGGCUGUCCUCCAACCAUGGGGUGGCCACUCCACCCG: 0.606
UUUGUGAGUGCUUGGAGUGUUCUUCCUAAUAAACACACUUCAUGUCUUGUGUUGUCUUUUUCACUCAGUCCUGACUUACACAUAGGGGUCCUGGAAGAACGGGAGUAUGA: 0.533
AUGCAUAUUGUUUAUAAAGACACAUUUACAAUUUACUUUUAAUAUUAAAAAUUACCAUAUUAUGAAAUUGCUGAUAGUAUUUGAAGACUGAGUCUUGUGUGUUUCCCACC: 0.81
AAGUCAGCCAGACACCUUGUACUGGGCACGCGUCAGACCACAGCCGGCCGUUUCCUUUCUUUAGCCAGCCGUCCUGGUACUGUAGCUUAGGGGUUGAUGGUGGAUGAAAU: 0.226
UACACCAGUGACUGUCGGGCAGGGCAAGCGCCCUGGUCACAGACCCCAGAAACAUGACCUCCCACUGCAGGGUGUUGAAGGCCGAGCCCUCCCUCCGCUGAGCAUGUGAU: 1.61
CAGCAAUUCACGCUGUCUCUUCUUAACCCUGAACAAGAGUGUCUAUGGAGCAGCCGGAAGUCUGUUCUCAAAGCAGAAGUGGAAUCCAGUGUGGCUCCCACAGGUCUUCA: 0.159
UCCAUCAGACCUCUUCCAUUUUGCACAGGGAGUGCAGGAGGUGAAUGUUCACUUUCUGUUCUCCAGUGUCACUGUUCUGUUUCCACGGGAUGGAAAGCGCAUGGGCCUGU: 0.689
UUUUCAGAGAGUGACCGAAUAGGAAGAAGGGAUUCAGAAAUAUGAUGUAGUAGAACAUGCCCUGCAGGAAGAAAAUGUUUUCUCUCCUGCGUAUGUUAAGAGGAAAUCAG: 1.51
GCCUCUCUGACGUGGUGCCUGCUGGAGGGAGGCUCGUCGUCACCAGCUGACUGCUGGUCCGGCUUCUGACCGGCCUUUGUCCUGGCUCCGUAGCAGAACACUGUAAAAGU: 0.391
AGAAUUCCCUAGAGACCUCUUGGGGGGCAACGGGCAGGCUGCAUCUCCCAGGAAACCAGGCAAGGGCCCGCCAUCCUAGUGAGGCAGGCCACCGCACCUUUCCACUUCUC: 0.374

Set 3 — method: RNA Bind-n-Seq; molecule type: RNA; medium: in vitro; concentration: not given; reference: input RNA pool; reading: higher = stronger binding; quantity: bound/input enrichment
Target: RING finger protein unkempt homolog, zinc fingers 1-6, GST-SBP tag (UNK, Homo sapiens, UniProt Q9C0B0, residues 30-357)
UniProt Q9C0B0, sequence (30-357, looked up): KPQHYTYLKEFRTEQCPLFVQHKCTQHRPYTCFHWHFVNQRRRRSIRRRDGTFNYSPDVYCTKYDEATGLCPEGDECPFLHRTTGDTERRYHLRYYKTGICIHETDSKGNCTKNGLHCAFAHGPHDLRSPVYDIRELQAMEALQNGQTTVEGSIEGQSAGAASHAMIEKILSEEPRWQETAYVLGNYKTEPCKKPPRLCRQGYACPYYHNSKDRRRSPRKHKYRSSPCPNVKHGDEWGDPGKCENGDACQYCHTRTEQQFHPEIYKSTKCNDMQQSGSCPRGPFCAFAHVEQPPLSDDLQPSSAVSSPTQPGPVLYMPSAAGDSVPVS
Setting: RNA with constant flanks, human and mouse sites, ends assumed
All sequences stand within: GGGAGUUCUACAGUCCGACGAUC … CAACAGAGGAUUGAGCAUCA
AAAAGAUCUAAUCCUCAAGUUGGUGUAGCCUUCCCUUACAUUAAGGACGCCUAUGAGUGUUUAGUUUAUGUGCAGCUGCCUUUCAUGGAAGACUUGCGGCAAUACAUGUUUUCCUCGCUG: 0.405 ratio
GUUGAAGUUGUUGCUGUUUCAUCCAUUCAUACACAAGACCCUUAUCUAGACAAAUUCUUUGCUCUUGUCAAUGCUCUGGAUGAACACAUGUUCCCGGUCCGAAUUGGGGACAUGCGGAUC: 1.04 ratio
AAACCGCUUUAUCAUCCUUGUGUAUGUACUGGCAGUAUUAAGUUUAUCCAUCAAGAAUGCUUAGUUCAAUGGCUGAAACACAGUCGAAAAGAAUACUGUGAAUUAUGCAAGCACAGAUUU: 0.248 ratio
AGCAAAAAAAAAAAAAAAAAAAAAAAAAAAAAGAGUCUCACUGUGCAGCUCAGCUUGUCUUUUAGUGUGUAGGCCUGGUUGUGAUCUUCCCAUCUCCUGAGAGCUGAGAUUACCAGUGUG: 1.32 ratio
AACCAAGGCAUUGCUCCCGUCCAGGUCUGUACCAAUCUCUUGAUCAAGCAAGUGGUGGAAGUAGCUUGUGGCUCACAUCAUUCAAUGGCUCUGGCAGCUGAUGGAGAGGUGUUUGCUUGG: 0.124 ratio
GAUUAUUUAUUCAAGUUACUUCUGAUUGGCGAUUCUGGGGUUGGAAAGUCCUGCCUUCUCCUUAGGUUUGCAGAUGAUACGUAUACGGAAAGCUACAUCAGCACAAUUGGUGUGGAUUUC: 1.53 ratio
GUGCAGUAGAAUUCAGAGACUUCUCAUUCAAUCUUGUAUCCUAUGCAGCUACAAAUAUUUUUUAAAUGUUAGUAAUAAACAUUGGAAUUUUGUCUUAAAGAGUUCAAAACCUUGGAACCC: 0.263 ratio
AUAAUAAAAGCCUCCAGCAAAGACGCCAUCAGGCUCUUGGAUUCUGUGCCUCCCACUGCCAUUAGCCAUUUCAAGCAGUCAGCUGAGAAGCUGAUUGAGGAGAAGGGAGCUGUAGAGGCC: 0.428 ratio
GACGUUGAGAGGAUUGUUUAUUUGAUUUUUAUCCUCAUCCCAGCAGGCCUGGCUUUGUGGUUAGUUGGGUACAUCACAAAAAUAAGUUAAAAAGAAAUAUUUGUGCCUUGGGGAGAAGAA: 0.571 ratio
CCAGAUGACCGGUCACAGGGAGCAAUCAUUGCUGACCGGCCAGGGCUGCCUGGCCCAGAGCAUAGCCCUUCAGAAUCCCAGCCUUCGUCGCCUUCUCCGACCCCAUCACCAUCCCCAGUC: 0.229 ratio
GCCAGGCCGUAUACUGGGUUCACAUAUCAGGCUGCAGGAAAGGCAGUAUGAUAUAAGGUAAGGGCAUAGGAAAUGAAGCUGAAAUGGACACACACACACACACACACACUGAUAAACUUG: 1.14 ratio

Set 4 — method: competition protein-binding microarray; molecule type: double-stranded DNA, one strand shown; medium: in vitro; concentration: 2 µM; with: Cbf1 competitor, 0.05 µM; reading: higher = stronger binding; quantity: fluorescence intensity; all sequences stand within: … GTCTTGATTCGCTTGACGCTGCTG
Target: Phosphate system positive regulatory protein PHO4, full length, GST-tagged (PHO4, Saccharomyces cerevisiae, UniProt P07270, residues 1-312)
Setting: whole 60-bp probe, lowest competitor level
Residues (chain): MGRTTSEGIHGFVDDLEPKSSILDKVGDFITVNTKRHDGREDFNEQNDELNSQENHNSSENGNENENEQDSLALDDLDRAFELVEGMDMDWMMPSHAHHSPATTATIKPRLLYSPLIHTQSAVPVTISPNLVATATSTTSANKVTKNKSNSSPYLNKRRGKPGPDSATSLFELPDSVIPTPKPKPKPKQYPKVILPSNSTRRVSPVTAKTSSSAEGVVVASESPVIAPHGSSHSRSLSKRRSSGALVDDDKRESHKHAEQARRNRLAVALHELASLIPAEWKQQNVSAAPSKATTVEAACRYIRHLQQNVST
GATGACATTATGGTTAACATGATAAAGGATGAATTG: 4880 a.u.
TGTCGTCTCGGTTTTCACGTTGCTAATCGAACGATC: 7640 a.u.
TAAACAATACTTAAAAACGTGTTGGAACTTTTACGA: 12500 a.u.
ACCATACACTATCAAGCAATATTATACTTGTTCTTT: 4770 a.u.
TACAGAACCCAGATACACATGTAAACAACGAGCATC: 7800 a.u.
TTTAATGGTCCAAAGCATGTGCTAAACTGCCACAGA: 10000 a.u.
TGCTATGTCCCTTCGACCGTGATGGAATGGGAGTGG: 5120 a.u.
AAGATTCAGCCTTAGCACGCACCAATTCTTGTTCCA: 9300 a.u.
ATTTGATATGCCTCTCTCGTGGCCGGCCCATTATAT: 7710 a.u.
ATGAAACCTAAGTCCCACGTGTCGGTTAAATGGCCA: 19800 a.u.
AAATTACTAAGTTTTCACGTGACGTACCCCGTATGA: 11200 a.u.
CTAACGAAGGTTTTTCACGTGGGGTACAAGCCAAGT: 14400 a.u.
TTGCTCTTCTATTTGCACGTGAAGCATGCTGAAATC: 14700 a.u.
CATACCCAACCTTGCACCGTGGGTGAAGATATTTGT: 8700 a.u.
TTATCATTGAAAATTCACGTGATGGCAATATTCCGG: 12100 a.u.
AAATTACTAAGTTGTCACGTGACTTACCCCGTATGA: 11700 a.u.
AAGATTGCTGAAGACCACATGGAGATACTACGCTCC: 7820 a.u.
TGCGCAACAACTTGCTATGTGGGTGTATGTCTAGAA: 4850 a.u.
TCAACGCCTTTTACCTTGTCCTTTGATGCCTGTCTC: 3330 a.u.
CCAGGGCCAGGGACTCACGTGTGAAGGTCTGCAGCC: 10200 a.u.
GTCTTGTCTCATTGGTTCGTGGGTGTCCCCACTTCA: 6780 a.u.
CTTTCCCGATCTTGAGTGGTGGGTGTAGCACATTTG: 4630 a.u.
TGTTATTATTGACAACATGTGTAAGTTGGTCGAAGA: 9210 a.u.

Set 5 — method: protein binding microarray; molecule type: double-stranded DNA, one strand shown; medium: in vitro; concentration: not given; reference: not given; reading: higher = stronger binding; quantity: E-score
Target: Histone acetyltransferase KAT6A, both winged helices, GST fusion (KAT6A, Homo sapiens, UniProt Q92794, residues 1-181)
Setting: 8-mer, flanks averaged, mean of 2 arrays, mostly near background
Residues (chain): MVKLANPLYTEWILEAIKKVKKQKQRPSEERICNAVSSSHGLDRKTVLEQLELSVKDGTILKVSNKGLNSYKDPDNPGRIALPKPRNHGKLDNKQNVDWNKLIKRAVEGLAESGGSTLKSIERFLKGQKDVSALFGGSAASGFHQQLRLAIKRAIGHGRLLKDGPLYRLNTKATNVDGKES
CGAGTGCC: 0.0536
CAGTGTCG: -0.0204
GTCGGGGA: 0.127
CCAGTTCG: 0.006
ATGCTGGG: -0.203
AATAGCGT: 0.178
CCGTAGCC: 0.181
GGCATAAC: 0.041
GCGGGGAC: 0.206
TAATCCTA: -0.0147
TGAGCGAA: 0.148
GTTAGAAA: -0.0662
AGCCGTAT: 0.2
AGGATACC: -0.102
AGAAAACG: 0.0698
ATAGCTAT: 0.048
CTTAATCC: -0.0386

A few entries again (set 4):
ACCATACACTATCAAGCAATATTATACTTGTTCTTT: 4770 a.u.
TACAGAACCCAGATACACATGTAAACAACGAGCATC: 7800 a.u.
TTTAATGGTCCAAAGCATGTGCTAAACTGCCACAGA: 10000 a.u.
TGCTATGTCCCTTCGACCGTGATGGAATGGGAGTGG: 5120 a.u.
AAGATTCAGCCTTAGCACGCACCAATTCTTGTTCCA: 9300 a.u.
ATTTGATATGCCTCTCTCGTGGCCGGCCCATTATAT: 7710 a.u.
